# Measurements gathered from unrelated publications.
# Protocols differ between the studies behind these lines. Values joined by “and” are separate records of one study, mostly repeats; a detail may differ. pEC50, pIC50: −log10 of the molar value.
# Cell line: MM1.S
SMILES,assay,conditions,measurement,value
Cn1cc(-c2cccc(N3CCCC3=O)c2)c2ccccc2c1=O,"c-MYC protein level, western blot, item: c-MYC",6 h,pIC50,< 6.00
Nc1cccc2c1C(=O)N(C1CCC(=O)NC1=O)C2=O (stereo not drawn),XTT,1.6 µM,viability,29% and 16% and 31%
COC[C@H](NC(=O)[C@H](CCC(=O)NC(C)(C)C)NS(=O)(=O)c1ccc(C)cc1)C(=O)NCc1ccc(F)c2ccccc12,"cell viability, CellTiter-Glo",72 h,EC10,20 nM
CCOC(=O)/C=C/C(=O)N(CC(C)C)NC(=O)[C@H](Cc1ccccc1)NC(=O)[C@H](CC(C)C)NC(=O)[C@H](CCc1ccccc1)NC(=O)OCc1ccccc1,MTS,"10 µM, 72 h",viability decrease,40%
Cc1cccc(-c2[nH]c(CNc3ccccc3F)nc2-c2ccc3ncnn3c2)n1,XTT,1 µM,viability,69% and 85% and 60%
CCn1cc(-c2cc(Cn3ccnc3)cc3c2CCN([C@H](c2cc(OC)ccn2)C2CC2)C3=O)c(C(F)(F)F)n1,"cell growth, inhibitor",120 h,pEC50,4.75
O=C1CCC(=O)N1Cc1cc2nccc(-c3cc(Cl)cc4c3N([C@@H]3CNC5(CCC5)C3)CCC4)c2s1,"protein induction, item: p53",,EC50,2.92 ng/mL
CCn1cc(-c2cc(Cn3ccoc3=N)cc3c2CCN([C@@H](C)c2cc(OC)ccn2)C3=O)c(C(F)(F)F)n1,"cell growth, inhibitor",120 h,pEC50,6.20
CCOC(=O)/C=C/C(=O)N(CC(C)C)NC(=O)[C@H](CC(C)C)NC(=O)[C@H](CC(C)C)NC(=O)OCc1ccccc1,MTS,"10 µM, 72 h",viability decrease,50%
